Results from different studies.
Each numbered part is a random draw from the data of one study; scales do not carry over between parts. Changes are numbered by the printed parent chain.

Sample 1
Target: Histone acetyltransferase KAT6A, both winged helices, GST fusion (KAT6A, Homo sapiens, UniProt Q92794, residues 1-181)
Technique: protein binding microarray
Molecule type: double-stranded DNA, one strand shown
Matrix: in vitro
Tested at: not given
Notes: 8-mer, flanks averaged, mean of 2 arrays, mostly near background
Baseline: not given
Direction: higher = stronger binding
Target sequence (chain): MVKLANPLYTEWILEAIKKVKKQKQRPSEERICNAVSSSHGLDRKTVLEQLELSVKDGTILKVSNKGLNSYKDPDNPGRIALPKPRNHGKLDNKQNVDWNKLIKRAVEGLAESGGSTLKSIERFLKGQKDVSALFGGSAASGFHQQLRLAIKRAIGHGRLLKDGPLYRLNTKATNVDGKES
Sequence	E-score
CCTCCAGA	-0.126
GGGTTGTA	0.0235
ATCCGACC	0.0909
GGCTATTA	-0.0953
AGACTTGA	-0.232
AATCCCCA	-0.232
CTGGGTTA	-0.203
CCGGTCAA	0.199
GGAGGTAA	-0.247
GTGTGTCA	0.0632
ACCGGTTG	0.0843
ATAGACCC	0.0195
AACGACGG	0.235
AATACAGT	-0.167
AGCGCCTA	0.0968
AAGTAGAG	-0.14
GCGGAGTA	0.0867
CGCTCCTA	0.0604
CCCCGTTA	0.045
AACCGCCA	0.11
CTCGCTCC	-0.0418
AAGTCGGA	0.0505
CTGACAGA	-0.155
AAAACACA	-0.115
CGTTTTCA	0.145

Sample 2
Target: CCNE2, cyclin fold, Cln2 fusion (human)
Technique: yeast growth competition, sequencing
Matrix: yeast
Notes: weak parent motif
Baseline: not given
Direction: higher = stronger binding
Parent: PKMYT1 docking peptide (human); SFEPRNLLSLFED; partner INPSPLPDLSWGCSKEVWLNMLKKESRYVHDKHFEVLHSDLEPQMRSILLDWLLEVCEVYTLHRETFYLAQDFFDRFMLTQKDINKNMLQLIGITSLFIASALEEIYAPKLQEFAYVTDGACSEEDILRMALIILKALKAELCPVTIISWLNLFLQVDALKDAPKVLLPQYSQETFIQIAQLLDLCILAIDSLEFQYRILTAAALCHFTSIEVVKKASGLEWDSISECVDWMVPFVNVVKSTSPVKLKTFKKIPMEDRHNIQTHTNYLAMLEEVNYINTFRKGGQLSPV
Change	normalised enrichment score
L7F	-0.346
N6W	-0.00365
N6A	-0.0637
E12N	-0.126
P4T	-0.397
L8N	0.237
F11M	-0.3
N6I	0.0686
S1L	0.819
S1A	-0.213
N6S	0.375
F2L	0.295
L8K	0.332
L10S	-0.261
P4I	-1.36
L7V	-0.501
E12T	0.124
D13L	0.0353
E3R	0.114
R5I	0.508
S9M	0.26
L7M	-0.779
L10T	0.809
E12R	0.394
S9R	0.617

Sample 3
Target: Protein max, full length (MAX, Homo sapiens, UniProt P61244-2, residues 1-151)
Technique: protein-binding microarray
Molecule type: double-stranded DNA, one strand shown
Matrix: in vitro
Tested at: not given
Notes: k-mer, scored over probes, only values ≥0.25
Direction: higher = stronger binding
Sequence	E-score
CATATGCC	0.314
ACGCTAAC	0.309
ACAATGTG	0.385
CCGCGCGG	0.272
CGTGTTGA	0.303
AAGACATG	0.282
CATGGGGA	0.377
CTTGCACA	0.268
CGTGCTAG	0.388
ACCGCCTG	0.292
GGCCACGA	0.27
ACGCGCAT	0.372
ACAGCGTG	0.454
CACGTGCG	0.496
ACACGTTC	0.364
ATGTGGGC	0.332
AGCCCACG	0.335
AGGGCGTG	0.323
TAGCACGA	0.293
ATGCCGCC	0.283
AGCTCATG	0.301

Sample 4
Target: RING finger protein unkempt homolog, zinc fingers 1-6, SBP tag (UNK, Homo sapiens, UniProt Q9C0B0, residues 30-357)
UniProt Q9C0B0, sequence (30-357, looked up): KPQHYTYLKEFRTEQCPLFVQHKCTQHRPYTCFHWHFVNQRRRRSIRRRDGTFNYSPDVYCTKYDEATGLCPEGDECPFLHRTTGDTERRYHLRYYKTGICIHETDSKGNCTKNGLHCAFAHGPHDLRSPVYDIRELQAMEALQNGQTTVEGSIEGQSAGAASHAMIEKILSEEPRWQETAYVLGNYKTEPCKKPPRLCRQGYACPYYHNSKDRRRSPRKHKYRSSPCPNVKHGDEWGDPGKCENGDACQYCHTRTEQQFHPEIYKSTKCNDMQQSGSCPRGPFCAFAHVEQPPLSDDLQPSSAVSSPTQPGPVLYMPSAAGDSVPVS
Technique: RNA Bind-n-Seq
Molecule type: RNA
Matrix: in vitro
Tested at: 100 nM
Notes: RNA with constant flanks, vertebrate orthologous sites, ends assumed
Baseline: input RNA pool
Direction: higher = stronger binding
Constant ends, left off below: GGGAGUUCUACAGUCCGACGAUC … CAACAGAGGAUUGAGCAUCA
Sequence	bound/input enrichment [ratio]
GUGGUCCCUCCUGUGGCAGCAUCCUUGCAUACUGUCCUGGCCAGGACCAGGGACCUAUGUGUAGAACAUUUUUUAAAUCGCUGUGUCUGAGCAUCUCAGAGUAGGUGUGUCUCUUUGCAA	0.416
AAUUUCUUGUAUACAUGAUCUAGUCCUGUAUUAUUAUUAUUAUUUUCUUACACGAUUGUUUGUCAGUAUGUCUGUGUCUGUCACAUUUCCUUCUCAGGCGAAGGGCUAGAGUUUAAAAAA	1.65
CUCCCGCACCUCACGACAGGGAGUCGGGGGAGCUCAGGAUGACCCUCAGCUGUUCCAAUCCAGUAUUUUUCUUUUUAAAAAUUACUGUAUUUAUUAUGACGAUGGUGACUCCCCGGUGCA	0.404
CUGAAUAUUCUUAACAGUCCAAGAUGUUAUAAAAAUAUAUACCUGAAUUAUAAGAGCUGUUAGCAGUUUUUUUUUAAGCAUUUGUUUUGGGUACAAGGCAUAUCUGAAAUUUUAUAAACC	0.426
UAGUGCCAUGGUGGAGGGCUCCGAGCUCAAAAAGGUCCGCUCCAACUCCAGGAUUUACCACAGGUAUUUCUUGCUGGACGCCGACAUGCAGAGCCUGAGGUGGGAACCAUCCAAGAAGGA	0.251
AUCUCUCAUUUUCUAUGUCCAAAAAAGGUUUUGAAUUUUUAAAUAAUUGCUAGUUUUGAUUAGCUUUGCCCUCAUGAAGUAUUAUUAUAAUCCCCAUAAACAGAUAUCUGUCUGAAUUAC	0.777
AAGUUCCCCCAUUGUCACUGAGAACCACCAAAUCUGACUUUUACAUUUGGUCUCAGAAUUUAGGUUCCUGCCCUGUUGGUUUUUUUUUUUUUUUUUUAAACAGUUUUCAAAAGUUCUUAA	1.4
CCGGUCUUCCACUUAGGCUCAGCCUCAGAUCUAUAGGAUUUAUGACAAAUGUAUUAUAUCUAGUUAAGUUGAGUUCAUUAUUUUUUUAUUGGCCUGUAAAUAAAGAUGGCAUCUUCUACA	1.2
UGAGCAUACAUAUACAAUGUGUUUCAAAUGCUGCUUGUAAAAUUAAACCAUCAUCUAGAAUAGAGUUAAUUUAUUAUAAUCAAGCUACAAAUAGGUUUUCUUAAACCAGAGAUGCACUGC	0.585
UUACAGUCAUUGAUGGACUCUAUUUUUUUAUUAUUACUUGGACCUUGGUCGUUUUUAUACUAGCAAUGAAAAAUGUCUUGUUUUAAUUUGUUUUUUUUUUUUCGGGGGGGGGUACGGGGU	3.15
AAUUAUAGCAAAAGAGCCAAGCAGUAGCAUUGAGUUUUUUUUUAUAAAUGUAAAAUUAAUUAGAUUCAGACUUUGUUUCCUUAUUCAGUUUUAAAAAUAAAAAAUACCUCAGUGCUGUUU	0.438

Sample 5
Target: Ras GTPase-activating protein-binding protein 1, RRM domain (G3BP1, Homo sapiens, UniProt Q13283)
UniProt Q13283, sequence (whole entry, looked up): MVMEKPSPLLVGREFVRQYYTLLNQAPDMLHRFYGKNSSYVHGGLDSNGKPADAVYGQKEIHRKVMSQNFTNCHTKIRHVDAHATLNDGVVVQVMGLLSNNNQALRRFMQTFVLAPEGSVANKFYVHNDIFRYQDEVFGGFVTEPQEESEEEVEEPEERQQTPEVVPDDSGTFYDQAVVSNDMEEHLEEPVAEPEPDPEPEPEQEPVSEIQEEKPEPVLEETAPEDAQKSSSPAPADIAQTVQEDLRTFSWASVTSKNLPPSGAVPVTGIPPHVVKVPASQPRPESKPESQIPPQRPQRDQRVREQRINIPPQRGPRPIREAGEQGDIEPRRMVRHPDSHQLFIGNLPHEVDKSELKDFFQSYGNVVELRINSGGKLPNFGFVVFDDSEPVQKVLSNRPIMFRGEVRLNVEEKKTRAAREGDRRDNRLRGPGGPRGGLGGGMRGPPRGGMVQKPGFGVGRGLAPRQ
Technique: RNA Bind-n-Seq
Molecule type: RNA
Matrix: in vitro
Tested at: 1 µM
Notes: whole 134-nt RNA, ends assumed
Together with: 150 mM KCl
Baseline: input library
Direction: higher = stronger binding
Constant ends, left off below: GGGAGUUCUACAGUCCGACGAUC … UGGAAUUCUCGGGUGUCAAGG
Sequence	log2 enrichment
CACAGACAACACGCACCCACACAGACACAGAGGGAAGGGGUUGGGAUGGGGACAGGGUGCACAGCAGGGCGAGGUAGGACCCCAGCCCCU	-0.269
AGUCCUGUGCUACACAUCGUAUGUACCGAAUCGGGGAAAAAGGGGUGGGGAAAGGGGAAAGUAUUAUGUUACGCCGUUCGGAUCUGCACU	0.924
UAACUUUAGAGGAGGAUCUGAUGGAUAUGGCAGUGGACCUGGAUUUGGGGAUGGCUAUAAUGGGUAUGGAGGAGGACCUGGAGGUGGCAA	-0.641
GCACGAAGUAAAAACAAAUGGAAAUGCUUCGGAUAGUGGCAGGGGUGGGGGUUGCUAAGGAAAGGGUGGGAUGGGAGUGGGUAAAGAGUU	1.04
UGGCCCUGGUGGCGUGCGGGGAGGAAGAGGUGGCCUCAUGGAUCGUGGUGGUCCCGGUGGAAUGUUCAGAGGUGGCCGUGGUGGAGACAG	0.935
AAGUCCUGUGCUACACAUCGUAUGUACCGAAUCGGCCCCGGGCCCCGGGGCCCCGGGAAAGUAUUAUGUUACGCCGUUCGGAUCUGCACU	-0.659
ACCAUGCAGGUGGGCAUCUUUGGGAAGUGGGGCAAGGGUGGGAUAGGGAGGGGGGUAACACUUUGGGAACAGGUGGUCCCAGGUCGUUUC	-0.704
CAAGUCCUGUGCUACACAUCGUAUGUACCGAAUCGGGCCGGGGCCGGGGCCGGGGAAAGUAUUAUGUUACGCCGUUCGGAUCUGCACUUC	-1.46
AAGUCCUGUGCUACACAUCGUAUGUACCGAAUCGGGGUGGGGAAAGGGGUUUGGGGAAAGUAUUAUGUUACGCCGUUCGGAUCUGCACUU	1.28
CUCAAGUCCUGUGCUACACAUCGUAUGUACCGAAUCGGCCCGGCCCGGCCCGGGAAAGUAUUAUGUUACGCCGUUCGGAUCUGCACUUCC	-0.905
UGGGGUCUGCGUACGCCUGGAGUCCUUCCCCGCUGUGCUCAGCAUGGACCCUAUCCGGAGCUUCUGCGGGAAGCUGCGGUCUCUGGCCAG	-0.509
CUCAAGUCCUGUGCUACACAUCGUAUGUACCGAAUCGGGAAGGAAGGGAAGGGGAAAGUAUUAUGUUACGCCGUUCGGAUCUGCACUUCC	0.0956
CACAGACAACACGCACCUACACAGACACAGAGGGAAGGGGUUGGGAUGGGGACAGGGUGCACAGCAGGGCGGGGUAGGACCCCAGCCCCU	-0.00987
CAAGUCCUGUGCUACACAUCGUAUGUACCGAAUCGGAAAAAGGAAAAAGGAAAGGAAAGUAUUAUGUUACGCCGUUCGGAUCUGCACUUC	-0.084

Excerpt of the above (sample 5):
Sequence	log2 enrichment
CUCAAGUCCUGUGCUACACAUCGUAUGUACCGAAUCGGCCCGGCCCGGCCCGGGAAAGUAUUAUGUUACGCCGUUCGGAUCUGCACUUCC	-0.905
UAACUUUAGAGGAGGAUCUGAUGGAUAUGGCAGUGGACCUGGAUUUGGGGAUGGCUAUAAUGGGUAUGGAGGAGGACCUGGAGGUGGCAA	-0.641
CAAGUCCUGUGCUACACAUCGUAUGUACCGAAUCGGAAAAAGGAAAAAGGAAAGGAAAGUAUUAUGUUACGCCGUUCGGAUCUGCACUUC	-0.084
CUCAAGUCCUGUGCUACACAUCGUAUGUACCGAAUCGGGAAGGAAGGGAAGGGGAAAGUAUUAUGUUACGCCGUUCGGAUCUGCACUUCC	0.0956
AGUCCUGUGCUACACAUCGUAUGUACCGAAUCGGGGAAAAAGGGGUGGGGAAAGGGGAAAGUAUUAUGUUACGCCGUUCGGAUCUGCACU	0.924
ACCAUGCAGGUGGGCAUCUUUGGGAAGUGGGGCAAGGGUGGGAUAGGGAGGGGGGUAACACUUUGGGAACAGGUGGUCCCAGGUCGUUUC	-0.704
CACAGACAACACGCACCUACACAGACACAGAGGGAAGGGGUUGGGAUGGGGACAGGGUGCACAGCAGGGCGGGGUAGGACCCCAGCCCCU	-0.00987
AAGUCCUGUGCUACACAUCGUAUGUACCGAAUCGGGGUGGGGAAAGGGGUUUGGGGAAAGUAUUAUGUUACGCCGUUCGGAUCUGCACUU	1.28
CAAGUCCUGUGCUACACAUCGUAUGUACCGAAUCGGGCCGGGGCCGGGGCCGGGGAAAGUAUUAUGUUACGCCGUUCGGAUCUGCACUUC	-1.46
UGGGGUCUGCGUACGCCUGGAGUCCUUCCCCGCUGUGCUCAGCAUGGACCCUAUCCGGAGCUUCUGCGGGAAGCUGCGGUCUCUGGCCAG	-0.509
CACAGACAACACGCACCCACACAGACACAGAGGGAAGGGGUUGGGAUGGGGACAGGGUGCACAGCAGGGCGAGGUAGGACCCCAGCCCCU	-0.269
GCACGAAGUAAAAACAAAUGGAAAUGCUUCGGAUAGUGGCAGGGGUGGGGGUUGCUAAGGAAAGGGUGGGAUGGGAGUGGGUAAAGAGUU	1.04
AAGUCCUGUGCUACACAUCGUAUGUACCGAAUCGGCCCCGGGCCCCGGGGCCCCGGGAAAGUAUUAUGUUACGCCGUUCGGAUCUGCACU	-0.659
